{"data": "Experimental data pooled from the literature", "note": "Protocols differ between the studies behind these lines. Numbers after ± are the reported error."}
{"Structure (SMILES)": "COc1cc(C)cc2c1OCO2", "cell line": "T47D", "assay": "cell growth or viability, MTT", "setting": "72 h", "quantity": "GI50", "value": "12.5 µM"}
{"Structure (SMILES)": "N=C(N)NCCC[C@H](NC(=O)[C@H](CCCNC(=N)N)NC(=O)[C@H](CCCNC(=N)N)NC(=O)[C@H](CCC(N)=O)NC(=O)[C@H](CCCNC(=N)N)NC(=O)[C@H](CCCNC(=N)N)NC(=O)[C@H](CCCCN)NC(=O)[C@H](CCCCN)NC(=O)[C@H](CCCNC(=N)N)NC(=O)[C@H](Cc1c[nH]c2ccccc12)NC(=O)[C@H](Cc1c[nH]c2ccccc12)NC(=O)[C@@H](N)CSSC[C@H](N)C(=O)N[C@@H](Cc1c[nH]c2ccccc12)C(=O)N[C@@H](Cc1c[nH]c2ccccc12)C(=O)N[C@@H](CCCNC(=N)N)C(=O)N[C@@H](CCCCN)C(=O)N[C@@H](CCCCN)C(=O)N[C@@H](CCCNC(=N)N)C(=O)N[C@@H](CCCNC(=N)N)C(=O)N[C@@H](CCC(N)=O)C(=O)N[C@@H](CCCNC(=N)N)C(=O)N[C@@H](CCCNC(=N)N)C(=O)N[C@@H](CCCNC(=N)N)C(=O)NCC(N)=O)C(=O)NCC(N)=O", "cell line": "sample A primary mouse astrocytes", "assay": "flow cytometry", "setting": "2.5 µM, 1 h, analysed 24 h after, with: TAT-Cre 2 µM", "quantity": "tdTomato-positive cells", "value": "≥ 50%"}
{"Structure (SMILES)": "N=C(N)NCCC[C@H](N)C(=O)NCC(=O)N[C@@H](CC(=O)O)C(=O)O", "cell line": "NIH 3T3 fibroblasts", "test system": "peptide-functionalised PEG-glass", "setting": "concentration not given, 4 h, serum-free, per 10× image", "quantity": "adherent cell number", "value": "33 ± 8"}
{"Structure (SMILES)": "CC[C@@]1(O)C(=O)OCc2c1cc1n(c2=O)Cc2cc3cc(OC(=O)CCCC(=O)NCC(=O)N[C@@H](Cc4ccccc4)C(=O)N[C@@H](Cc4ccccc4)C(=O)N[C@@H](Cc4ccc(OP(=O)(O)O)cc4)C(=O)NCCSSCCNC(=O)CCC(=O)N[C@@H](CCC(=O)O)C(=O)N[C@@H](CCCNC(=N)N)C(=O)NCC(=O)N[C@@H](CC(=O)O)C(=O)O)ccc3nc2-1", "cell line": "HepG2 spheroids", "setting": "100 µM, 7 days", "how to read": "reference: initial", "quantity": "spheroid volume", "value": "20%"}
{"Structure (SMILES)": "C=CCc1ccc(OC(=O)COC(=O)Cn2cnc3c2c(=O)n(C)c(=O)n3C)c(OC)c1", "cell line": "RAW264.7", "assay": "ELISA", "setting": "1 µM, with: LPS", "how to read": "reference: LPS alone", "quantity": "TNF-α reduction", "value": "28.8%"}
{"Structure (SMILES)": "COc1cc(C)c(OC)c2c1OCO2", "cell line": "T47D", "assay": "cell growth or viability", "setting": "72 h", "quantity": "GI50", "value": "> 250 µM"}
{"Structure (SMILES)": "C[C@@H](O)[C@@H]1NC(=O)[C@H](CCCCN)NC(=O)CCCC(=O)NCCCC[C@@H](C(=O)NCC(=O)NCC(=O)N[C@@H](Cc2ccc(O)cc2)C(=O)NCC(=O)N[C@@H](CCCNC(=N)N)C(=O)N[C@@H](CCCCN)C(=O)N[C@@H](CCCCN)C(=O)N[C@@H](CCCNC(=N)N)C(=O)N[C@@H](CCCNC(=N)N)C(=O)N[C@@H](CCC(N)=O)C(=O)N[C@@H](CCCNC(=N)N)C(=O)N[C@@H](CCCNC(=N)N)C(=O)N[C@@H](CCCNC(=N)N)C(N)=O)NC(=O)[C@H](CCCCN)NC(=O)[C@H](CCC(=O)O)NC(=O)[C@H](CC(=O)O)NC(=O)CNC1=O", "cell line": "Huh-7", "assay": "apoptosis, flow cytometry", "setting": "40 µM, 16 h", "quantity": "caspase-3 positive cells", "value": "3.16%"}
{"Structure (SMILES)": "CC1=CC(C)=[N+]2C1=Cc1ccc(CCC(=O)NCC3C[NH][Pt]([Cl])([Cl])[NH]3)n1[B-]2(F)F (centres unmarked)", "cell line": "CP20 cells", "assay": "flow cytometry", "setting": "25 µM, 45 min", "how to read": "reference: parental KB 3-1 cells", "quantity": "accumulation reduction", "value": "25%"}
{"Structure (SMILES)": "O=C(O)CCC(NP(=O)(O)OCCC[C@@H](NC(=O)CCC(NC(=O)c1ccc([18F])cc1)C(=O)O)C(=O)O)C(=O)O (some centres unmarked)", "cell line": "CWR22Rv1", "setting": "1 h", "quantity": "cell uptake", "value": "0.39 ± 0.06%"}
{"Structure (SMILES)": "CCCc1cc(OC)c(OC)c(OC)c1OC", "cell line": "A-375", "assay": "cell growth or viability, MTT", "setting": "72 h", "quantity": "GI50", "value": "> 250 µM"}
{"Structure (SMILES)": "CC[C@@H](C(=O)[C@@H](C)[C@@H](O)[C@H](C)[C@@H]1O[C@@H]([C@@H](CC)C(=O)O)CC[C@@H]1C)[C@H]1O[C@]2(C=C[C@H](NCc3ccccc3)[C@]3(CC[C@@](C)([C@H]4CC[C@](O)(CC)[C@H](C)O4)O3)O2)[C@H](C)C[C@@H]1C", "cell line": "HMLER CD24low/CD44high", "assay": "cell viability, CellTiter-Blue", "setting": "72 h", "how to read": "reference: IC50 HMLER CD24high/CD44low over CD24low/CD44high", "quantity": "selectivity ratio", "value": 6.2}
{"Structure (SMILES)": "N=C(N)Nc1ccc(-c2nc3ccc(-c4ccc5nc(-c6ccc(NC(=N)N)cc6)[nH]c5c4)cc3[nH]2)cc1", "cell line": "wild-type myotubes", "setting": "concentration not given", "quantity": "MBNL1 exon 5 inclusion", "value": "no effect"}
{"Structure (SMILES)": "CCCCCCCCCCCCCCCC[P+](c1ccccc1)(c1ccccc1)c1ccccc1", "cell line": "T47D", "assay": "cell growth or viability", "setting": "72 h", "quantity": "GI50", "value": "0.398 µM"}
{"Structure (SMILES)": "CC[C@H](C)[C@H](NC(=O)[C@H](CCCNC(=N)N)NC(=O)[C@H](CCC(N)=O)NC(=O)[C@@H](NC(=O)[C@@H](NC(=O)[C@H](CCCNC(=N)N)NC(=O)[C@H](CCCCN)NC(=O)[C@@H](N)Cc1ccccc1)[C@@H](C)CC)C(C)C)C(=O)N[C@@H](CCCCN)C(=O)N[C@@H](CC(=O)O)C(=O)N[C@@H](Cc1ccccc1)C(=O)N[C@@H](CC(C)C)C(=O)N[C@@H](CCCNC(=N)N)C(=O)O", "cell line": "LAD2", "assay": "agonist", "setting": "3 µM, with: Escherichia coli LPS 10 µg/mL, 5 min preincubation", "quantity": "LPS effect on degranulation", "value": "no effect"}
{"Structure (SMILES)": "CC(C)=CCC/C(C)=C/C[P+](c1ccccc1)(c1ccccc1)c1ccccc1", "cell line": "DU-145", "assay": "cell growth or viability, MTT", "setting": "72 h", "quantity": "GI50", "value": "0.932 µM"}
{"Structure (SMILES)": "[Cl][Ag].[Se]=c1n(C2CCCCC2)ccn1C1CCCCC1", "cell line": "A2780 ADR", "assay": "MTT", "how to read": "reference: A2780 ADR over A2780", "quantity": "resistance factor", "value": 1.1}
{"Structure (SMILES)": "COc1cc(C)c(OC)c(OC)c1OC", "cell line": "T47D", "assay": "cell growth or viability", "setting": "72 h", "quantity": "GI50", "value": "> 250 µM"}
{"Structure (SMILES)": "COC[C@@H](NC(C)=O)C(=O)NCc1ccc(-c2cccc(I)c2)cc1", "cell line": "CAD", "assay": "Na+ current, patch clamp", "setting": "10 µM", "quantity": "V1/2 of fast inactivation", "value": "-76.5 ± 1.3 mV"}
{"Structure (SMILES)": "CC(C)CC(O)(CC(C)C)c1cn(C(=O)N2CCCC2)nn1", "cell line": "mouse T-cells", "assay": "SILAC proteomics, refers to: FBXO7", "setting": "1 nM, 6 h, unit not given", "how to read": "reference: DMSO", "quantity": "protein level", "value": "1.1 ± 0.04"}
{"Structure (SMILES)": "CNC(=O)c1cc(Oc2ccc(NC(=O)c3ccc(-c4cccc(COC(=O)CCC(=O)OC5OC6OC7(C)CCC8C(C)CCC(C5C)C68OO7)c4)cn3)cc2)ccn1 (centres unmarked)", "cell line": "Huh-7", "assay": "western blot", "setting": "concentration not given, 48 h", "quantity": "Bcl-2 protein level", "value": "decreased"}
{"Structure (SMILES)": "CC[C@H](C)[C@H](NC(=O)[C@H](Cc1ccccc1)NC(=O)[C@H](CC(=O)O)NC(=O)[C@H](CCCCN)NC(=O)[C@H](C)NC(=O)[C@H](CCCCN)NC(=O)[C@H](CC(N)=O)NC(=O)[C@H](CC(C)C)NC(=O)[C@H](Cc1c[nH]c2ccccc12)NC(=O)[C@H](CCC(=O)O)NC(=O)[C@H](CCCCN)NC(=O)[C@@H](NC(=O)CNC(=O)[C@H](C)N)[C@@H](C)O)C(=O)N[C@@H](CCCCN)C(=O)N[C@@H](CCC(=O)O)C(=O)N[C@@H](CCCCN)C(=O)NCC(=O)N1CCC[C@H]1C(=O)NCC(=O)N[C@@H](CCSC)C(=O)N[C@@H](CC(C)C)C(=O)N[C@@H](CO)C(=O)N[C@@H](C)C(=O)N[C@@H](C)C(=O)N[C@@H](C)C(=O)N[C@@H](CC(N)=O)C(=O)N[C@@H](C)C(=O)N[C@@H](C)C(=O)N[C@@H](CC(C)C)C(=O)N[C@@H](CC(N)=O)C(=O)O", "cell line": "HEK293 cells", "assay": "intracellular calcium, FLIPR", "setting": "0.1% BSA", "quantity": "EC50", "value": "> 100 µM"}
{"Structure (SMILES)": "CC/C=C\\C/C=C\\C/C=C\\C/C=C\\C/C=C\\C/C=C\\CCC(=O)Nc1ccn(C2OC(CO)C(O)C2(F)F)c(=O)n1 (centres unmarked)", "cell line": "OVCAR-3", "assay": "NCI60 screen", "quantity": "CC50", "value": "49.6 µM"}
{"Structure (SMILES)": "CN1C(=O)C2(Cc3ccc(CC45SSC(CO)(C(=O)N4C)N(C)C5=O)cc3)SSC1(CO)C(=O)N2C (racemic)", "cell line": "MCF7", "assay": "microarray", "setting": "600 nM, ≥2-fold change, with: deferoxamine 300 µM", "how to read": "reference: deferoxamine alone", "quantity": "number of affected transcripts", "value": 403}
